Published values from different studies.
Lines come from different studies, so protocols differ. Numbers after ± are the reported error.

O=P1(C2CCCCC2)CCCCC1
necrotic cells (PC-3; annexin V/PI flow cytometry; IC50, 72 h): 0.35%

CSCC[C@H](NC(=O)[C@H](Cc1ccc(OS(=O)(=O)O)cc1)NC(=O)[C@@H](N)CC(=O)O)C(=O)NCC(=O)N[C@@H](Cc1c[nH]c2ccccc12)C(=O)N[C@@H](CCSC)C(=O)N[C@@H](CC(=O)O)C(=O)N[C@@H](Cc1ccccc1)C(N)=O
cAMP accumulation (HEK293T control virus; agonist, GloSensor cAMP; 3.2 nM, no receptor expressed; higher = more cAMP): 0.226 a.u.

COc1cc([C@@H]2c3cc4c(cc3[C@@H](O[C@@H]3O[C@@H]5CO[C@@H](C)O[C@H]5[C@H](O)[C@H]3O)[C@H]3COC(=O)[C@H]23)OCO4)cc(OC)c1O
S phase cells (HepG2 spheroids; flow cytometry; 1.7 µM, 24 h): 2.32 ± 1.03%

COc1ccc(C[C@H](NC(=O)[C@H](C)NC(=O)CN2CCOCC2)C(=O)N[C@@H](Cc2ccccc2)C(=O)C2(C)CO2)cc1 (stereo in doubt)
inhibition (BT-16; cell viability, MTT; 10 µM, 72 h): 93.8%

CC1(C)Oc2ccc(CC3=C(c4ccc(O)cc4)C(=O)OC3=O)cc2CC1O (centres unmarked)
nitric oxide production decrease (RPTEC; Griess; 10 µg/mL, 24 h, added: LPS 1 µg/mL; baseline: LPS-treated cells): ~35%

CCOc1cc(-c2nnc(C)n2C)ccc1Nc1ncc2cc(C)nc(NCC(C)(C)C)c2n1
GI50 (CAL-51; cell growth; 72 h): 42 nM

Cn1c(Nc2nc3ccc(C(F)(F)F)cc3s2)nc2cc(C(=O)NCCOCCO)ccc21
fold change (SH-SY5Y; RNA-seq, refers to: LDLR mRNA; 5 µM, 5 h; baseline: untreated cells): 1.7

O=C(O[C@@H]1COC(=O)c2cc(O)c(O)c(O)c2-c2c(cc(O)c(O)c2O)C(=O)O[C@H]1[C@@H]1OC(=O)c2cc(O)c(O)c(O)c2-c2c(O)c(O)c(O)c3c2C(=O)O[C@H]1[C@@H]3O)c1cc(O)c(O)c(O)c1
inhibition (SIM-A9 microglia; nitric oxide production, Griess; 13.3 to 213.3 µM, added: LPS): > 50%

COc1cnc2cccc(N3CCc4c(cc(Cn5ccnc5C)cc4-c4cn(C)nc4C(F)(F)F)C3=O)c2c1
EC50 (JHH5; cell growth; 120 h): > 30000 nM

O=c1[nH]nc(OCCCc2ccc(Cl)cc2)c(NCc2cccnc2)c1Br
normalized enrichment score (HEK-293T; RNA-seq GSEA, refers to: HALLMARK_XENOBIOTIC_METABOLISM; concentration not given; direction not given): 0.991

CCn1cc(-c2cc(Cn3ccoc3=N)cc3c2CCN([C@@H](C)c2cc(OC)ccn2)C3=O)c(C(F)(F)F)n1
EC50 (JHH5; cell growth; 120 h): 952 nM

C#Cc1cccc(Nc2ncnc3cc(OC)c(OCCCCCCC(=O)NO)cc23)c1
inhibition (BT-16; cell viability, MTT; 10 µM, 72 h): 90.1%

COc1cc(/C=C/C(=O)N2CCC=CC2=O)cc(OC)c1OC
mRNA level (MDA-MB-468; qRT-PCR, refers to: NFE2L1; 30 µM, 6 h; baseline: time zero): 61.7 ± 3.7%

COC(=O)[C@]12CCC(C)(C)C[C@H]1[C@H]1C(=O)C=C3[C@@]4(C)C=C(C#N)C(=O)C(C)(C)[C@@H]4CC[C@@]3(C)[C@]1(C)CC2
point of departure (HepG2; refers to: phospholipidosis; 24 h, distribution mode 2): 0.155 µM

CNc1ncc2cc(-c3cc(NC(=O)NCCC(C)(C)C)c(F)cc3C)c(C)nc2n1
IC75 (SK-MEL-239 (BRAF V600E); ERK phosphorylation, Western blot; 1 h): 92 nM

CC[C@H](C)C(=O)O[C@H]1C[C@@H](C)C=C2C=C[C@H](C)[C@H](CC[C@@H]3C[C@@H](O)CC(=O)O3)[C@H]21
inhibition (BT-16; cell viability, MTT; 10 µM, 72 h): 93.9%

Cc1ccc(CNC(=O)Cn2cc(CSc3nc4ccccc4[nH]3)nn2)cc1
cytotoxicity (Caco-2; MTT; 500 ppm): 90.9%

O=C(/C=C/C=C/C=C/C1CCCCC1)NC1=C[C@@](O)(/C=C/C=C/C=C/C(=O)NC2=C(O)CCC2=O)[C@@H]2O[C@@H]2C1=O
GI50 (dang; cell growth, inhibitor, CellTiter-Glo luminescence; 78 h; baseline: day 0 cell count): 19600 nM

C[C@H]1O[C@@H](O[C@H]2[C@@H](O)C[C@H](O[C@H]3[C@@H](O)C[C@H](O[C@H]4CC[C@@]5(C)[C@H](CC[C@@H]6[C@@H]5C[C@@H](O)[C@]5(C)[C@@H](C7=CC(=O)OC7)CC[C@]65O)C4)O[C@@H]3C)O[C@@H]2C)C[C@H](O)[C@@H]1O
inhibition (BT-16; cell viability, MTT; 10 µM, 72 h): 91.2%

Cn1cc(-c2ccc(-c3cncc(Cl)c3N3CCC4(CCNC4=O)CC3)cc2)cn1
log2 fold change (COLO 205; gene expression, microarray, refers to: HIST1H4D mRNA; concentration not given, 2 h; baseline: untreated cells): -2.53
